# Measured values gathered from unrelated publications.
# Protocols differ between the studies behind these lines. ± marks the error that the study gave.
Structure (SMILES),target or system,assay,system,conditions,scale,quantity,result
O=C(NCCCN1CCOCC1)c1ccc(Nc2ncc(Cl)c(-c3ccc(Cl)s3)n2)cc1,Plasmodium berghei,"liver stage parasite load, luciferase","HepG2, ANKA",44 h post-infection,,EC50,3400 nM
CCn1nccc1Nc1ccnc2ccc(-c3ccc(S(=O)(=O)N4CCOCC4)cc3)cc12,Plasmodium falciparum,"parasite growth, SYBR Green",TM91C235,,,EC50,4100 nM
Cc1c(-c2ccc(N3CCc4cccc(C(=O)Nc5nc6ccccc6s5)c4C3)nc2C(=O)O)cnn1CC12CC3(C)CC(C)(C1)CC(OCCNCC[C@H](O)CO)(C3)C2,,,"beagle dog, male, anaesthetised","intravenous infusion, 0.3 mg/kg/min, 60 min",reference: vehicle,dP/dt at 50 change,-26%
O=C(NCCN1CCCC1)c1cc(-c2ccc(CN3CCOCC3)cc2)nc2ccc(F)cc12,Plasmodium berghei,checkerboard model fit,HepG2 spheroids,,,EC50,3.58 nM
Cn1cc(-c2ccc(-c3cncc(Cl)c3N3CCC4(CCNC4=O)CC3)cc2)cn1,COLO 205,"gene expression, microarray, refers to: SLC39A8 mRNA",,"concentration not given, 6 h",reference: untreated cells,log2 fold change,1.82
Cc1cc(OC(C)C)ccc1C(=O)C(C)(C)NC(=O)c1sccc1C,Corynespora cassiicola,mycelial growth,PSA medium,20 °C,,EC50,0.35 µg/mL
COCC(=O)N1CCC[C@H](C(=O)NCc2nc(-c3ccc(NC4CCC4)nc3)cs2)C1,Plasmodium falciparum,SYBR Green growth,"asexual blood-stage parasites, 3D7",72 h,,EC50,100 ± 26 nM
COc1cc2c(cc1OC)[C@@H]1C(=O)c3ccc4c(c3O[C@@H]1CO2)C=CC(C)(C)O4,human adenovirus C5,progeny virus production,A549,72 h,,EC50,80 nM
COc1cnc2cccc(N3CCc4c(cc(Cn5ccnc5C)cc4-c4cn(C)nc4C(F)(F)F)C3=O)c2c1,HEC108,cell growth,,120 h,,EC50,> 30000 nM
CC(C)C[C@H](NC(=O)C[C@H](O)[C@H](CC(C)C)NC(=O)[C@H](Cc1c[nH]cn1)NC(=O)CNC(=O)[C@@H](NC(=O)[C@H](C)NC(=O)[C@H](Cc1c[nH]c2ccccc12)NC(=O)[C@H](CCC(N)=O)NC(=O)[C@@H](Cc1ccccc1)NC(=O)COCCOCCNC(=O)CCC(C(=O)O)N1CCN(CC(=O)O)CCN(CC(=O)O)CCN(CC(=O)O)CC1)C(C)C)C(N)=O (stereo partly shown) [lutetium-177 labelled],,,"BALB/c nu/nu mice, blood","intravenous, 100 pmol, 1 h, together with: PA 300 µg",,tissue uptake,0.38 ± 0.07 %ID/g
NCCOCC(=O)N1CCC[C@H](C(=O)NCc2nc(-c3ccc(C4CC4)cc3)cs2)C1,Plasmodium falciparum,SYBR Green growth,"asexual blood-stage parasites, 3D7",72 h,,EC50,20 ± 1.5 nM
O=S(=O)(c1ccc(-c2ccc3nccc(Nc4ccccc4)c3c2)cc1)N1CCOCC1,Plasmodium falciparum,"parasite growth, SYBR Green",D6,,,EC50,190 nM
CC1(C)c2nc(-c3ccc(F)cc3)c(Nc3ccc(F)cc3)n2CCN1C(=O)CN,Plasmodium berghei,checkerboard model fit,HepG2 spheroids,,,EC50,371 nM
O=C(O)CNC(=O)Cc1ccccc1,,,"ventricular cardiomyocytes, C57BL/6 mouse","dose not given, 0.832 s",,sarcomere length,1.64 µm
Cc1cnc(Nc2ccc(C(=O)N3CCC(N4CCCC4)CC3)cc2)nc1-c1ccc(Cl)s1,Plasmodium berghei,"liver stage parasite load, luciferase","HepG2, ANKA",44 h post-infection,,EC50,2400 nM
COCC(=O)N1CCC[C@H](C(=O)N(C)Cc2nc(-c3ccccc3)cs2)C1,Plasmodium falciparum,SYBR Green growth,"asexual blood-stage parasites, 3D7",72 h,,EC50,> 5000 nM

# Some of these lines once more:
Structure (SMILES),target or system,assay,system,conditions,scale,quantity,result
COc1cc2c(cc1OC)[C@@H]1C(=O)c3ccc4c(c3O[C@@H]1CO2)C=CC(C)(C)O4,human adenovirus C5,progeny virus production,A549,72 h,,EC50,80 nM
